# Experimental data from different studies.
# Compare with care: the assays were run in different laboratories.
Compound,tested on,assay,system,conditions,scale,endpoint,result
CC(C)C(=O)C(=O)O,,"binding, MIDAS equilibrium dialysis LC-MS",A2AR-BRIL thermostabilized,concentration not given,reference: no-protein control,log2 fold change,-2.2
COc1cnc2cccc(N3CCc4c(cc(Cn5ccnc5C)cc4-c4cn(C)nc4C(F)(F)F)C3=O)c2c1,RL,cell growth,,120 h,,EC50,41.6 nM
O=C1N=C(N2CCN(c3ccccc3)CC2)S/C1=C\c1ccccc1O,NG108-cl,"clomeleon fluorescence, item: intracellular chloride reduction",,5 h,,EC50,inactive
Cn1cc(-c2ccc(-c3cncc(Cl)c3N3CCC4(CCNC4=O)CC3)cc2)cn1,COLO 205,"gene expression, microarray, item: HIST2H4A mRNA",,"concentration not given, 2 h",reference: untreated cells,log2 fold change,-2.49
CC(C)C[C@@H](C=O)NC(=O)[C@H](CC(C)C)NC(=O)[C@H](CC(C)C)NC(=O)OCc1ccccc1,LDR,"silenced CMV-GFP reporter derepression, qHTS",,,,EC50,5010 nM
C[C@H](Nc1ccc2c(c1)OCCn1cc(N3C(=O)OC[C@H]3C(F)F)nc1-2)C(N)=O,HCC1954 PIK3CA H1047R,"cell viability, ATP luminescence",,120 h,,EC50,40.8 nM
O=C(O)c1ccoc1,,"binding, MIDAS equilibrium dialysis LC-MS",A2AR-BRIL thermostabilized,concentration not given,reference: no-protein control,log2 fold change,-0.349
CCC(C)(C)C(=O)C(=O)N1CCCC[C@H]1C(=O)N[C@H](CCc1ccc(OC)cc1)C(=O)N1[C@@H]2CC[C@H]1C[C@H](Nc1nc(NCCc3sc(N)nc3C)nc(N3CCn4ncnc4C3)n1)C2,GFP-LC3 HeLa,GFP-LC3 puncta formation,,,,EC50,12000 nM
O=C1N=C(N2CCCCN2)S/C1=C\c1ccc(F)cc1OC(=O)N1CCCC1,NG108-cl,"clomeleon fluorescence, item: intracellular chloride reduction",,5 h,,EC50,inactive
O=C(c1cc(Cc2n[nH]c(=O)c3ccccc23)ccc1F)N1CCN(C(=O)C2CC2)CC1,MEF PTEN+/-,"cell proliferation, CellTiter-Glo",,168 h,,EC50,2000 nM
NC1=NC(=O)/C(=C/c2ccccc2O)S1,NG108-cl,"clomeleon fluorescence, item: intracellular chloride reduction",,5 h,,EC50,inactive
CCn1cc(-c2cc(Cn3ccnc3)cc3c2CCN([C@H](c2cc(OC)ccn2)C2CC2)C3=O)c(C(F)(F)F)n1,RERF-LC-MS,"cell growth, inhibitor",,120 h,,EC50,9010 nM
C[C@]12CCCN1CC1=NNC(=O)c3cc(F)cc4[nH]c2c1c34,T84 colorectal cancer cells,cell viability,,"concentration not given, with: with temozolomide",,EC50,> 3000 nM
O=C1N=C(N2CCCCC2)S/C1=C\C1CCCC1,NG108-cl,"clomeleon fluorescence, item: intracellular chloride reduction",,5 h,,EC50,inactive
CCn1cc(-c2cc(Cn3ccoc3=N)cc3c2CCN([C@@H](C)c2cc(OC)ccn2)C3=O)c(C(F)(F)F)n1,Panc 04.03,cell growth,,120 h,,EC50,16.7 nM

# Repeated from above:
Compound,tested on,assay,system,conditions,scale,endpoint,result
C[C@H](Nc1ccc2c(c1)OCCn1cc(N3C(=O)OC[C@H]3C(F)F)nc1-2)C(N)=O,HCC1954 PIK3CA H1047R,"cell viability, ATP luminescence",,120 h,,EC50,40.8 nM
